Measurements pooled from the literature.
Numbered parts are unrelated; each lists some results of a single study. Several values in a cell are separate wells, animals, samples, runs or records.
Sequence of UniProt P21802 (whole entry, looked up): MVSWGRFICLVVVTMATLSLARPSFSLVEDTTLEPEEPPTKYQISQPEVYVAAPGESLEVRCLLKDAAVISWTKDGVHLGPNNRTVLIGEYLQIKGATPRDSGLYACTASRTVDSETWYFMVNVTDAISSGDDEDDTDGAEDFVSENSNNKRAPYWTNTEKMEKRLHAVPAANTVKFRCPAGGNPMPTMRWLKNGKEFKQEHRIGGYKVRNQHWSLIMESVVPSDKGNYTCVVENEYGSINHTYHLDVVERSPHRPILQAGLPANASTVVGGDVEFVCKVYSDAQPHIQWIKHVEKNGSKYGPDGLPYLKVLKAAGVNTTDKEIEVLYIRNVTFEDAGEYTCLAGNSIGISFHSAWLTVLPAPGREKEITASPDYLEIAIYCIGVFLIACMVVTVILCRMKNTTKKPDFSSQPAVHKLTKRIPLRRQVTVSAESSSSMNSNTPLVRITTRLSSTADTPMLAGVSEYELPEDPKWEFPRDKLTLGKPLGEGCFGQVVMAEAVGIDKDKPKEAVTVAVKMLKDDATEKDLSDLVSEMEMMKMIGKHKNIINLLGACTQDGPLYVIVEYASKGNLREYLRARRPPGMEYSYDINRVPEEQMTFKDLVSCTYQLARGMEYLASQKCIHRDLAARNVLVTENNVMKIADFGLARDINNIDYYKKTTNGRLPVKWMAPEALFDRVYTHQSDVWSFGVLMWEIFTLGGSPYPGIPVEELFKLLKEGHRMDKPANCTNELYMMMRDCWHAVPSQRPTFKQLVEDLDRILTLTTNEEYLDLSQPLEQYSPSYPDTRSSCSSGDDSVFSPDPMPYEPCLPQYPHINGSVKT
Sequence of UniProt P14616 (whole entry, looked up): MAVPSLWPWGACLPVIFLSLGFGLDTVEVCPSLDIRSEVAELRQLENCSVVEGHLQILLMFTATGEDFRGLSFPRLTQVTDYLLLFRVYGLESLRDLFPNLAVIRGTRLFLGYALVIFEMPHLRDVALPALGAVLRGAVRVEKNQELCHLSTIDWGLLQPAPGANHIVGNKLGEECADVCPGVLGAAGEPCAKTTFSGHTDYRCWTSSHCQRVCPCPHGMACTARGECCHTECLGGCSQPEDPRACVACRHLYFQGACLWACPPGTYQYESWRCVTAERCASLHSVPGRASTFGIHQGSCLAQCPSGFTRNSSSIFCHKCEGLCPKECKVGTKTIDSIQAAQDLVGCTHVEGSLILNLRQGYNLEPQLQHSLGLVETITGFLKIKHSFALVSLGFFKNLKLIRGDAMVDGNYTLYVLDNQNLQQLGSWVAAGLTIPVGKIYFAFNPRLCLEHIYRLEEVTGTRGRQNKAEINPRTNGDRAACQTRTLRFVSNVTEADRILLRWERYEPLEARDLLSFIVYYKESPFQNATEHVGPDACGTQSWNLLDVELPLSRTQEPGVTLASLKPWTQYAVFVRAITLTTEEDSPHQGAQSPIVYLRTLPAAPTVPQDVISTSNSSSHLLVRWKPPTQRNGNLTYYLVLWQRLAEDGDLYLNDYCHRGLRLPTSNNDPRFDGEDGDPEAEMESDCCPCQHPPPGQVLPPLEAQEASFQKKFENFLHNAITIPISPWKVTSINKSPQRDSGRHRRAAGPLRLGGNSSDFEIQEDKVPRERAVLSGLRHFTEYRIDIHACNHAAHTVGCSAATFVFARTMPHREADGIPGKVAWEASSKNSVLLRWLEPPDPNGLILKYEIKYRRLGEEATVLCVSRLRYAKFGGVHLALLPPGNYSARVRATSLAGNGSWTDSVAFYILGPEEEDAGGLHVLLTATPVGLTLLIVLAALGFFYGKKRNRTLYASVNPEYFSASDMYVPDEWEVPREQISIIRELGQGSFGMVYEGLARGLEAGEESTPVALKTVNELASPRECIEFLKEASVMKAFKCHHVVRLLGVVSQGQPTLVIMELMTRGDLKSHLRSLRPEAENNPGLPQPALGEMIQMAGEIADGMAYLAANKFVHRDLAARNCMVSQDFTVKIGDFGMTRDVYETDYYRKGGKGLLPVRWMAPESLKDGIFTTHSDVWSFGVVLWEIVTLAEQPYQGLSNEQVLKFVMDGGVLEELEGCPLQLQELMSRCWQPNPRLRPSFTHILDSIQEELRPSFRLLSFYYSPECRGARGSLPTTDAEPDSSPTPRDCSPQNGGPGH
Sequence of UniProt O43353 (whole entry, looked up): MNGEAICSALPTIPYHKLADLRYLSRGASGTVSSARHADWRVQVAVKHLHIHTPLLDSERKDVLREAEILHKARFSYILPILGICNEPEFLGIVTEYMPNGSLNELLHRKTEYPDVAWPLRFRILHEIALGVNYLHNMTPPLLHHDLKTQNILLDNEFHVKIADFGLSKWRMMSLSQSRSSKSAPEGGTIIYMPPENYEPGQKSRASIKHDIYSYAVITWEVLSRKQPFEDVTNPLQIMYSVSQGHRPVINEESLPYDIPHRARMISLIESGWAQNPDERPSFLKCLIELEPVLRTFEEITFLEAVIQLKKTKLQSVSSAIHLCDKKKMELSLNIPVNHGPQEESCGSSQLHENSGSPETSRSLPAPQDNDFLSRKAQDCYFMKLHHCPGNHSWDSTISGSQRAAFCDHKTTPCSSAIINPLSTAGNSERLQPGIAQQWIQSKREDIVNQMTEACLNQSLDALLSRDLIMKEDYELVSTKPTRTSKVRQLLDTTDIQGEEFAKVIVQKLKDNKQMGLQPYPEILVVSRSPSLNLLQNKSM
Sequence of UniProt O94806 (whole entry, looked up): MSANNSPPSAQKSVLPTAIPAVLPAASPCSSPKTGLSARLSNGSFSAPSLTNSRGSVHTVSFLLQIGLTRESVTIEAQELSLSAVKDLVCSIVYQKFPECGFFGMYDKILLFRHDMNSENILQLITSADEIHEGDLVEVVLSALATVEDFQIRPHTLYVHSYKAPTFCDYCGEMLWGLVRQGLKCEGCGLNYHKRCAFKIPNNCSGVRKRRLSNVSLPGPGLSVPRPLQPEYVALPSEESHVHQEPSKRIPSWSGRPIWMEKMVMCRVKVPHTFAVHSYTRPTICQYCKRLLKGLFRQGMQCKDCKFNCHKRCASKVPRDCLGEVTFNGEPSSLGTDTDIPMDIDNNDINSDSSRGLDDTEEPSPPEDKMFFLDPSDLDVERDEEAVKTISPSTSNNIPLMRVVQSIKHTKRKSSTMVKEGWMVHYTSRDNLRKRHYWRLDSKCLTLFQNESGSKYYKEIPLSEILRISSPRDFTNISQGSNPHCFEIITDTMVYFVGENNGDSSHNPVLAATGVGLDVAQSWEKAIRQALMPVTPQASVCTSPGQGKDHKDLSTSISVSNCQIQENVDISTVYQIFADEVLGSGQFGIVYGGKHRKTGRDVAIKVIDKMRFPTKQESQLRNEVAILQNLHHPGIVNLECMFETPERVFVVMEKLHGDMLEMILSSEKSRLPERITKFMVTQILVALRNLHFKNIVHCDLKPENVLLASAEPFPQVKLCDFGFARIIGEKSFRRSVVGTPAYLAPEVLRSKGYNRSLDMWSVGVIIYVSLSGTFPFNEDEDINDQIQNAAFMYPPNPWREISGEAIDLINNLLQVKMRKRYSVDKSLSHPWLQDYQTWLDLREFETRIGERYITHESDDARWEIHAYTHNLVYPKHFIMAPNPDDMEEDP
Sequence of UniProt Q7L7X3 (whole entry, looked up): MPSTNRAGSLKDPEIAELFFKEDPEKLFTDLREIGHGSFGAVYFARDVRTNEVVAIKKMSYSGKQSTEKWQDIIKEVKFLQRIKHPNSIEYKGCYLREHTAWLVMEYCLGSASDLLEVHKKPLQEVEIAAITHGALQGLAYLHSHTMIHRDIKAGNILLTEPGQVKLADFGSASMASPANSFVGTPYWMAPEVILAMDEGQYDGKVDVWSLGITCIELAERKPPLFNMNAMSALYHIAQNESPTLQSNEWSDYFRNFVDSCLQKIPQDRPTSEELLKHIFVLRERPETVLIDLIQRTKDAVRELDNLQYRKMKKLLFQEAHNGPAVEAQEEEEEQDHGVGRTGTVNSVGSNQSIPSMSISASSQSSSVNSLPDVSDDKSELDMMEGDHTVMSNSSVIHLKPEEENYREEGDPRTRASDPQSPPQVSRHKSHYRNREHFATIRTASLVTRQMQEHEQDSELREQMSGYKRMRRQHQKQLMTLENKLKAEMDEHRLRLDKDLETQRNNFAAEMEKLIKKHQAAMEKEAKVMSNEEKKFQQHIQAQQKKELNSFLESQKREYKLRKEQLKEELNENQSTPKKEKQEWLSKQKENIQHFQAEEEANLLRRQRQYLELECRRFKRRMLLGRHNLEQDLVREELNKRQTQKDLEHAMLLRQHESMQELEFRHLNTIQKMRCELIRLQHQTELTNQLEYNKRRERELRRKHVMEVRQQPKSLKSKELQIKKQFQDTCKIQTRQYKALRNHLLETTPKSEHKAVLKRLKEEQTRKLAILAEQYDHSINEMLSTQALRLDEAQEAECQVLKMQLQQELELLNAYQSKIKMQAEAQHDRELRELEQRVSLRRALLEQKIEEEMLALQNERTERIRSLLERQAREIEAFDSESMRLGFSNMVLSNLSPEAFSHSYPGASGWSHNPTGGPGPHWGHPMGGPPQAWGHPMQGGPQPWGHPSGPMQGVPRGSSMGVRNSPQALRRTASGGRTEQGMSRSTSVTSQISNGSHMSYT

Series 1
SMILES: O=C1NC(=O)/C(=C/c2ccc3nccnc3c2)S1
Read-out: enzyme activity
Action: inhibitor
Tested at: 0.5 µM
Reference: control
NTRK2 (Homo sapiens, UniProt Q16620) — remaining activity: 90.7%.
The remaining activity was 102% (MAP3K9 (Homo sapiens, UniProt P80192)).
TNK2 (Homo sapiens, UniProt Q07912) — remaining activity: 91.4%.
For FGFR2 (Homo sapiens, UniProt P21802): remaining activity read 95%.
HCK (Homo sapiens, UniProt P08631) — remaining activity: 92.2%.
The remaining activity was 99.5% (PDGFRB (Homo sapiens, UniProt P09619)).
It gave 94.7% for remaining activity (PRKD3 (Homo sapiens, UniProt O94806)).
The remaining activity was 100% (ULK1 (Homo sapiens, UniProt O75385)).
For MAP4K5 (Homo sapiens, UniProt Q9Y4K4): remaining activity read 85.4%.
The remaining activity was 100% (PLK1 (Homo sapiens, UniProt P53350)).
It gave 97.4% for remaining activity (PHKG2 (Homo sapiens, UniProt P15735)).
It gave 82.8% for remaining activity (TAOK1 (Homo sapiens, UniProt Q7L7X3)).
The remaining activity was 76.8% (RIPK2 (Homo sapiens, UniProt O43353)).
The remaining activity was 89.9% (DSTYK (Homo sapiens, UniProt Q6XUX3)).
For INSRR (Homo sapiens, UniProt P14616): remaining activity read 111%.
It gave 94.9% for remaining activity (VRK1 (Homo sapiens, UniProt Q99986)).
For RAF1 (Homo sapiens, UniProt P04049): remaining activity read 92.3%.
The remaining activity was 39.8% (DYRK2 (Homo sapiens, UniProt Q92630)).
The remaining activity was 94.3% (SGK3 (Homo sapiens, UniProt Q96BR1)).
The remaining activity was 102% (ACVR1 (Homo sapiens, UniProt Q04771)).

Series 2
Cell line: colorectal tumour organoids
Tested at: 1 µM
Reference: DMSO
The viability of `COc1cc(Nc2ccnc3ccc(Br)cc23)cc(OC)c1OC` is reported as 67.9%.
With `O=C(O)c1ccc(-c2coc3ncc(-c4ccccc4)cc23)cc1Cl` the viability was 109%.
`Cn1cc(-c2ccc3occ(-c4ccccc4-c4ccccc4)c3n2)cn1` has a viability of 119%.
`CCN(CC)S(=O)(=O)Nc1cccc(-c2ccc3c(NC(=O)C4CC4)n[nH]c3c2)c1` has a viability of 84.8%.
With `CC(C)C(=O)Nc1n[nH]c2cc(-c3cccc(NS(=O)(=O)C4CC4)c3)ccc12` the viability was 107%.

Series 3
Target: Calcium/calmodulin-dependent protein kinase type II subunit alpha (CAMK2A, Homo sapiens, UniProt Q9UQM7)
Sequence of UniProt Q9UQM7 (whole entry, looked up): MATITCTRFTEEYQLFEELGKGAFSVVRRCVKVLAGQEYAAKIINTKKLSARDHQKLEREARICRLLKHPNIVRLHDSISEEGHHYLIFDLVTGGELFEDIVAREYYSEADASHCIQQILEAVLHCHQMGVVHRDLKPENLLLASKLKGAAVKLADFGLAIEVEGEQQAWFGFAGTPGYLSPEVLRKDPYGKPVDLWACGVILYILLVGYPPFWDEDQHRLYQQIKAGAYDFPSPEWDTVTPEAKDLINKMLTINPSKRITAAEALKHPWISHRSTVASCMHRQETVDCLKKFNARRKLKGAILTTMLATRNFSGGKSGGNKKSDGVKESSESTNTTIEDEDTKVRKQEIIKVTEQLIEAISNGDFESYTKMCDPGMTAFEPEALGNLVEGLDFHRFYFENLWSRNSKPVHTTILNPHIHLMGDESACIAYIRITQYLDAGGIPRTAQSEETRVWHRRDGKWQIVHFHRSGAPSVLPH
Read-out: enzyme activity
Action: inhibitor
Tested at: 10 µM
`CCOC(=O)C1=C[C@]2(CC)CCCN3CCc4c(n1c1ccccc41)[C@@H]32` has an inhibition of 10%.
`C[C@@H](O)[C@@H](N)C(=O)O` has an inhibition of 9%.
`COC(=O)/C=C/c1ccccc1` gave an inhibition of -56%.
With `NNc1nncc2ccccc12` the inhibition was -14%.
For `CCCCCCCCCCCCCCCC(=O)OC`, the inhibition was 11%.
`CCc1c2c(nc3ccc(O)cc13)-c1cc3c(c(=O)n1C2)COC(=O)[C@]3(O)CC` has an inhibition of -3%.
With `Cc1c(O)cc2c(c1O)C(=O)c1ccccc1C2=O` the inhibition was 6%.
With `C[C@@H]1O[C@@H](OC[C@H]2O[C@@H](Oc3c(-c4ccc(O)cc4)oc4cc(O)cc(O)c4c3=O)[C@H](O[C@@H]3O[C@@H](C)[C@H](O)[C@@H](O)[C@H]3O)[C@@H](O)[C@H]2O)[C@H](O)[C@H](O)[C@H]1O` the inhibition was -38%.

Series 4
Cell line: mouse MPNST tumor cells
Technique: high-content immunofluorescence imaging
Refers to: nuclear SOX9
Tested at: 10 µM
Time: 12 h
Notes: mean of 2 replicates
Reference: DMSO control
Direction: higher = more nuclear SOX9
`Cc1cc(C)c2c(N)c(C(=O)NCc3ccc(Cl)cc3)sc2n1`: “nuclear SOX9 intensity” 105 % of DMSO.
Under “nuclear SOX9 intensity”, `CN(C)CCOc1cc(-c2cn[nH]c2)ccc1NC(=O)C1COc2ccccc2O1` (stereo not drawn) is recorded as 113 % of DMSO.
Under “nuclear SOX9 intensity”, `CC(C)c1cc(-c2ccc(F)c3ccccc23)nc(N)n1` is recorded as 112 % of DMSO.
`CCCOc1ccc(Br)cc1-c1cc(-c2ccc(Cl)cc2)[nH]c1-c1ccncc1` — result for “nuclear SOX9 intensity”: 136 % of DMSO.
For `O=C(O)c1ccccc1NC(=O)N1CCC(c2ccccc2C(F)(F)F)CC1`, “nuclear SOX9 intensity” read 121 % of DMSO.
`Cc1ccccc1C(=O)N1CCc2cc(-c3nc(NC(=O)Cc4ccc5c(c4)OCO5)sc3C)ccc21`: “nuclear SOX9 intensity” 110 % of DMSO.
Under “nuclear SOX9 intensity”, `Cc1cnc(C(=O)NCCc2ccc(S(=O)(=O)NC(=O)NC3CCCCC3)cc2)cn1` is recorded as 93.9 % of DMSO.
`C[C@@H](CN1CC(=O)NC(=O)C1)N1CC(=O)NC(=O)C1`: “nuclear SOX9 intensity” 107 % of DMSO.
For `Clc1ccc2nsnc2c1NC1=NCCN1`, “nuclear SOX9 intensity” read 108 % of DMSO and 106 % of DMSO.
Under “nuclear SOX9 intensity”, `Clc1ccc2c(c1)CCc1cccnc1C2=C1CCNCC1` is recorded as 207 % of DMSO.
`O=C(c1cc2c(s1)CCCCC2)N1CCC(n2c(=O)[nH]c3ccccc32)CC1`: “nuclear SOX9 intensity” 104 % of DMSO.
For `O=C(NCc1ccc(F)cc1)N1CCN2C(=O)OC(c3ccccc3)(c3ccccc3)C2C1` (stereo not drawn), “nuclear SOX9 intensity” read 126 % of DMSO.

Some of these lines once more (series 3):
`COC(=O)/C=C/c1ccccc1` gave an inhibition of -56%.
`C[C@@H](O)[C@@H](N)C(=O)O` has an inhibition of 9%.
`CCc1c2c(nc3ccc(O)cc13)-c1cc3c(c(=O)n1C2)COC(=O)[C@]3(O)CC` has an inhibition of -3%.
